Measured values pooled from the literature.
Every numbered part comes from another study and shows a few of its results, in no order.

Series 1
Target: Histone acetyltransferase KAT6A, both winged helices, GST fusion (KAT6A, Homo sapiens, UniProt Q92794, residues 1-181)
Technique: protein binding microarray
Form: double-stranded DNA, one strand shown
Matrix: in vitro
Tested at: not given
Notes: 8-mer, flanks averaged, mean of 2 arrays, mostly near background
Reference: not given
Direction: higher = stronger binding
Residues (chain): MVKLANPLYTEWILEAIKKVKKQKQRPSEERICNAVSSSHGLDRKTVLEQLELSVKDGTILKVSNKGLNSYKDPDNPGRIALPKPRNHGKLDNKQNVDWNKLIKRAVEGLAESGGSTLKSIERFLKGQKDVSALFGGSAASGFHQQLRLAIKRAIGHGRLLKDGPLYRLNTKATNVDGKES
Strand	E-score
CGTCGGTA	0.265
AACGGACA	0.171
GGGCGTAA	0.103
CATAGCAG	-0.132
AGTGCGCA	0.235
AATTCTCG	-0.117
CATAAATC	-0.0156
GATGTCTA	-0.015

Series 2
Target: Interferon regulatory factor 7, full length, phosphomimetic (IRF7, Homo sapiens, UniProt Q92985, residues 1-503, S471D/S472D/S475D/S476D/S477D/S483D/S484D/S487D)
Technique: protein-binding microarray
Form: double-stranded DNA, one strand shown
Matrix: in vitro
Tested at: 2200 nM top
Notes: 60-bp whole probe
With: salmon DNA 0.4 mg/ml
Reference: random background probes
Direction: higher = stronger binding
Constant ends, left off below: GCCTAGCAC … GTCTTGATTCGCTTGACGCTGCTG
Target sequence (chain): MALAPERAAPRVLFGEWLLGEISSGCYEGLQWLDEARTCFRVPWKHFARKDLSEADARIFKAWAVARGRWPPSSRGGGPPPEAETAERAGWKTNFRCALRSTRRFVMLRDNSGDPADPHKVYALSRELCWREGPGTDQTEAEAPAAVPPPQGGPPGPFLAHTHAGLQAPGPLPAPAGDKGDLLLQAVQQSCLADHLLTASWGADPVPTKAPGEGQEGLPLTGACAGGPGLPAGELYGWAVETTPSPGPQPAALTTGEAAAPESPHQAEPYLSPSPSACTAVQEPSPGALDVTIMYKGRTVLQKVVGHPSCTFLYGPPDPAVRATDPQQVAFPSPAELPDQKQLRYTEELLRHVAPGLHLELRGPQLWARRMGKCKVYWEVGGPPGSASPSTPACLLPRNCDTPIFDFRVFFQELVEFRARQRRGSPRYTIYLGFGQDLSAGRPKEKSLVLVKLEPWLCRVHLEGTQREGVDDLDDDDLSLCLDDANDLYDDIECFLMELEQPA
Strand	fitted relative affinity
GACGGATTGCTTATCCTGACGTGCTAG	0.782 z-score
TTAGTTTTCGACTATCGGTTAGTGCTA	4.08 z-score
TCGCACACATACGGCTTCTCGTGCTAG	1.23 z-score
GACGGATTGGGTATCGGGACGTGCTAG	-0.00764 z-score
GGTCCCACCTCTTGGTGGGAGTGCTAG	-0.718 z-score

Series 3
Target: Replicase polyprotein 1ab, polymerase (rep, Severe acute respiratory syndrome coronavirus 2, UniProt P0DTD1)
Read-out: enzyme activity
Mode: inhibitor
Tested at: 20 µM
Structure (SMILES)	inhibition [%]
CC1(C)Oc2ccc(C#N)cc2[C@H](N(Cc2ncc[nH]2)c2ccc(Cl)cc2)[C@H]1O	-1
O=C(Nc1ccccc1Br)N[C@@H]1CCN(c2ccc(C(F)(F)F)cn2)C1	2.67
Cc1nn(C)c2nc(NNC(=O)Nc3cc(Cl)nc(Cl)c3)cc(C(C)C)c12	3.17
CC(=O)NCCCS(=O)(=O)O	-3.43
Cc1cc(C(=O)NOCCO)c(Nc2ccc(I)cc2F)n(C)c1=O	3.57
NC(N)=Nc1nc(CSCCN/C=N/S(=O)(=O)c2ccc(Br)cc2)cs1	1.57
CC(=O)N1CCC[C@H]1C(=O)N[C@@H](Cc1cnc[nH]1)C(=O)N[C@@H](CO)C(=O)N[C@@H](CS)C(=O)N[C@@H](CC(N)=O)C(N)=O	-4.08
COc1cc(-c2ncn(/C=C\C(=O)OC(C)C)n2)cc(C(F)(F)F)c1	2.95
CCN(CC)CCc1nc(-c2ccccc2)no1	-2.85
CCNCc1cc(C(C)(C)C)c(O)c(C(C)(C)C)c1	2.16
CC(=O)Nc1ccc(CC(=O)O)cc1	22.1
NCCCC(N)(C(=O)O)C(F)F (stereo not shown)	-3.19
CC#CCOC(=O)c1c(C)nc2sc3c(c2c1N)CCC(O)C3 (stereo not shown)	-0.98
O=C(CCN1CCN(C(=O)OCc2cc(Cl)cc(Cl)c2)CC1)c1ccc2[nH]c(=O)oc2c1	-4.25

Other studies, line by line
SMILES	organism	test	system	conditions	measurement	value
Cc1ccc(C)c(-n2sc3cc(F)ccc3c2=O)c1	SARS-CoV-2	cytopathic effect	Vero E6	10 µM	inhibition	3.6%

Excerpt of the above (series 3):
Structure (SMILES)	inhibition [%]
CC#CCOC(=O)c1c(C)nc2sc3c(c2c1N)CCC(O)C3 (stereo not shown)	-0.98
O=C(Nc1ccccc1Br)N[C@@H]1CCN(c2ccc(C(F)(F)F)cn2)C1	2.67
O=C(CCN1CCN(C(=O)OCc2cc(Cl)cc(Cl)c2)CC1)c1ccc2[nH]c(=O)oc2c1	-4.25
